Earlier results, collected from citations in different studies.
Compare with care: the assays were run in different laboratories. ± gives the spread as reported. ≈ marks a conversion by molar mass, not a printed value.

With `CN[C@@H]1[C@H](O)[C@H](NC)[C@H]2O[C@@]3(O)C(=O)C[C@@H](C)O[C@H]3O[C@@H]2[C@H]1O` the Cmax was 323 µM (plasma; concentration not given).
The GI50 of `O=C1c2ccccc2-c2c1c1ccc([N+](=O)[O-])cc1c(=O)n2C[C@H](O)CO` is reported as 0.016 µM (breast MCF7; cell growth).
`C=C[C@@H]1C[C@]1(NC(=O)[C@@H]1C[C@@H](Oc2nccc3cc(OC)ccc23)CN1C(=O)[C@@H](NC(=O)OC(C)(C)C)C(C)(C)C)C(=O)NS(=O)(=O)C1CC1` gave a tissue concentration of 0.25 µM (rabbit, heart; dose not given, 60 min after infusion).
`CC(C)c1nc(CN(C)C(=O)N[C@H](C(=O)N[C@@H](Cc2ccccc2)C[C@H](O)[C@H](Cc2ccccc2)NC(=O)OCc2cncs2)C(C)C)cs1` has a Cmax of 7.07 µM (plasma; concentration not given).
The hemolysis of `CC[C@H](C)[C@H](NC(=O)[C@@H](CCCCN)NC(=O)[C@@H](CCCCN)NC(=O)[C@@H](Cc1ccccc1)NC(=O)[C@@H](CC(C)C)NC(=O)[C@@H](CCCCN)NC(=O)[C@H](N)CCCCN)C(=O)N[C@@H](CC(C)C)C(=O)N[C@@H](CCCCN)C(=O)N[C@@H](Cc1ccc(O)cc1)C(=O)N[C@@H](CC(C)C)C(N)=O` is reported as 0 ± 0.5% (horse erythrocytes 5 % v/v; 150 µM).
`CC(=O)Nc1ccc(O)cc1`: “urinary microRNA levels” “increased” (rat, urine; oral, 1250 mg/kg, 24 h).
With `O=C1c2cccc3c2[C@H](CCC3)CN1[C@@H]1CN2CCC1CC2` the Tmax was 5.5 h (healthy volunteers, plasma; oral, 0.75 mg, single dose, given alone).
`COc1cccc2c1C(=O)c1c(O)c3c(c(O)c1C2=O)C[C@@](O)(C(=O)CO)C[C@@H]3O[C@H]1C[C@H](N)[C@H](O)[C@H](C)O1`: “brain metastasis uptake” 30 fold lower (immunodeficient mouse 231-BR-HER2 model; relative to: peripheral metastases).
`CC[C@]1(O)C[C@@H]2CN(CCc3c([nH]c4ccccc34)[C@@](C(=O)OC)(c3cc4c(cc3OC)N(C)[C@H]3[C@@](O)(C(=O)OC)[C@H](OC(C)=O)[C@]5(CC)C=CCN6CC[C@]43[C@@H]65)C2)C1` has a Cmax of 0.13 µM (plasma; concentration not given).
`CCCS(=O)(=O)Nc1ccc(F)c(C(=O)c2c[nH]c3ncc(-c4ccc(Cl)cc4)cc23)c1F` has a half-life of 30 to 120 h (human; population PK, multiple dose, percentile range).
For `CNCCC(Oc1ccc(C(F)(F)F)cc1)c1ccccc1` (stereo not shown), “maximum whole-body concentration” read 4.9 ng/g (juvenile Chinook salmon, whole body wet weight; concentration not given, field-collected).
`Oc1ccc(Nc2nc(-c3ccc(Cl)cc3)cs2)cc1` has a plasma concentration of 3.5 ± 4.9 µM (BALB/c mouse; intraperitoneal, 50 mg/kg, 1 h).
`CCN(CC)CCNC(=O)c1c(C)[nH]c(/C=C2\C(=O)Nc3ccc(F)cc32)c1C`: “patients with neutropenia” 72% (patients; dose not given, all grades).
For `CC[C@@H]1CN(C(=O)NCC(F)(F)F)C[C@@H]1c1cnc2cnc3[nH]ccc3n12`, the clearance reduction was roughly 25% (population PK model; patients vs healthy volunteers; dose not given; relative to: healthy volunteers).
`Nc1ccn([C@@H]2CS[C@H](CO)O2)c(=O)n1` gave an aqueous solubility of 1.93 log mg/mL (water; hydrate).
`O=C1CC(c2ccc(O)cc2)Oc2cc(O)cc(O)c21` (stereo not shown) — result for “urinary excretion as conjugates”: roughly 30% (rat; oral, in meal, 230 µmol/rat, 24 h).
For `Clc1ccc(C(Cn2ccnc2)OCc2ccsc2Cl)c(Cl)c1` (stereo not shown), the logP was 4.4.
Under AUC(0-inf), `N[C@@H](CC(=O)N1CCn2c(nnc2C(F)(F)F)C1)Cc1cc(F)c(F)cc1F` is recorded as “increased” (healthy male humans; dose not given, with: cyclosporine; relative to: without cyclosporine).
For `COc1cc(/C=C/C(=O)CC(=O)/C=C/c2ccc(O)c(OC)c2)ccc1O`, the t1/2 alpha was 1.38 ± 0.06 min (healthy mice).
`CC[C@H](C)CCCCC(=O)N[C@@H](CCN)C(=O)N[C@H](C(=O)N[C@@H](CCN)C(=O)N[C@H]1CCNC(=O)[C@H]([C@@H](C)O)NC(=O)[C@H](CCN)NC(=O)[C@H](CCN)NC(=O)[C@H](CC(C)C)NC(=O)[C@@H](Cc2ccccc2)NC(=O)[C@H](CCN)NC1=O)[C@@H](C)O` gave a total clearance of 1.87 L/h (population PK model; patients; intravenous, per 70 kg weight).
Under “unchanged drug share of plasma radioactivity”, `CCn1c(=O)c2c(nc(/C=C/c3ccc(OC)c(OC)c3)n2C)n(CC)c1=O` is recorded as roughly 80% (plasma; oral, concentration not given, 2 h).
For `O=C(O)c1ccccc1Nc1cccc(C(F)(F)F)c1`, the Cmax was 46 µM (plasma; concentration not given).
`C#Cc1cccc(Nc2ncnc3cc(OCCOC)c(OCCOC)cc23)c1` gave an AUC(0-t) of 11900 ± 5010 ng·h/mL (human; oral, 150 mg once daily, 24 h, day 1).
Under “time to neuronal uptake”, `CC(C)C[C@H](NC(=O)[C@H](CO)NC(=O)[C@H](CCCNC(=N)N)NC(=O)[C@H](CC(=O)O)NC(=O)[C@H](CCC(=O)O)NC(=O)[C@H](C)NC(=O)[C@@H]1CCCN1C(=O)[C@H](C)NC(=O)[C@H](CCC(=O)O)NC(=O)[C@@H]1CCCN1C(=O)[C@@H]1CCCN1)C(N)=O` is recorded as no more than 30 min (immunohistochemistry; Fischer 344 rats, substantia nigra; direct injection).
`CCN(CC)Cc1cc(Nc2ccnc3cc(Cl)ccc23)ccc1O` — result for “irreversible liver protein binding”: “decreased” (rat; dose not given, outcome decreased, with: ketoconazole).
`Cn1c(=O)c2c(ncn2C)n(C)c1=O` gave an epidermal concentration of 16 nmol/g tissue (mouse, epidermis; drinking water, 0.4 mg/mL (2 mM), average over 24 h).
With `CN1CCN(c2ccc3nc(-c4c(N)c5c(F)cccc5[nH]c4=O)[nH]c3c2)CC1` the AUC(0-t) was 2200 to 8250 ng·h/mL (human; oral, 500 mg, 5 days on 2 days off, day 1, 24 h).
`Nc1nc2c(nc(Br)n2[C@@H]2O[C@@H]3COP(=O)(O)O[C@H]3[C@H]2O)c(=O)[nH]1` — result for “Km or Ki”: 4.48 µM (PDE1B; cyclic nucleotide hydrolysis, substrate or inhibitor, isothermal titration calorimetry).
The metabolism of `Cc1nc2cccc(OCC(C)(C)C(=O)NC(C)C)c2c(N)c1C(=O)O` is reported as no more than 0.1% (phase I biotransformation; rat; 60 min; relative to: compound).
The hemolysis of `CCCC(=O)NCCCC[C@H](NC(=O)[C@H](CCCCN)NC(=O)[C@H](CC(C)C)NC(=O)[C@@H](NC(=O)[C@H](CCCCN)NC(=O)[C@H](CCCCN)NC(=O)[C@@H](Cc1ccccc1)NC(=O)[C@H](CC(C)C)NC(=O)[C@H](CCCCN)NC(=O)[C@H](CCCCN)NC(C)=O)[C@@H](C)CC)C(=O)N[C@@H](CC(C)C)C(N)=O` is reported as 0% (horse erythrocytes 5 % v/v; 150 µM).
`Cc1nc(Nc2ncc(C(=O)Nc3c(C)cccc3Cl)s2)cc(N2CCN(CCO)CC2)n1` — result for “log2 fold change”: 0.31 (hiPSC-derived cardiomyocytes; contractility; concentration not given, 72 h, at effective concentration; relative to: baseline).
With `CNCc1cc(-c2ccccc2F)n(S(=O)(=O)c2cccnc2)c1` the AUC(0-inf) ratio was roughly 1.58 fold (human; oral, single dose, NG, with: clarithromycin, multiple doses; relative to: with over without clarithromycin).
`CNC(=O)c1cc(Oc2ccc(NC(=O)Nc3ccc(Cl)c(C(F)(F)F)c3)cc2)ccn1` gave a Cmax of 5.6 µM (plasma; concentration not given).
`Cc1cc2c(cc1Cl)nc1c(=O)[nH]c(=O)nc-1n2C[C@H](O)[C@H](O)[C@H](O)COP(=O)(O)O` has a pKa of 3.42.
`CC(C)=CCC[C@]1(C)[C@@H](CC=C(C)C)C[C@@]2(CC=C(C)C)C(=O)[C@]1(C(=O)C(C)C)C(=O)C(CC=C(C)C)=C2O` has a Cmax of 0.23 µM (plasma; concentration not given).
For `COc1c(N2C[C@@H]3CCCN[C@@H]3C2)c(F)cc2c(=O)c(C(=O)O)cn(C3CC3)c12`, the QTc change was 12 ms (human, healthy volunteers; 400 mg single dose, 4 h; relative to: predose baseline).
With `Cc1ccccc1-c1cc(N2CCN(C)CC2)ncc1N(C)C(=O)C(C)(C)c1cc(C(F)(F)F)cc(C(F)(F)F)c1` the CL/F was 25.1 L/h (healthy volunteers, plasma; oral, dose not given, netupitant-palonosetron combination, with: oral contraceptives).
`CC(=O)Nc1cccc(-n2c(=O)n(C3CC3)c(=O)c3c(Nc4ccc(I)cc4F)n(C)c(=O)c(C)c32)c1`: “beating cessation concentration” 100 µM (hiPSC-derived cardiomyocytes; 72 h, tested 0 to 100 µM).
`CC[C@H](C)[C@H](N)C(=O)N[C@H](C(=O)NCC(=O)N[C@@H](CC(C)C)C(=O)N[C@@H](CCSC)C(=O)N[C@H](C(=O)NCC(=O)NCC(=O)N[C@H](C(=O)N[C@H](C(=O)N[C@H](C(=O)N[C@@H](C)C(=O)O)[C@@H](C)CC)C(C)C)C(C)C)C(C)C)[C@@H](C)CC` has a solubility of 62 ± 17 µM (≈ 70.8 µg/mL) (filtration; sodium phosphate buffer; pH 7.4).
`CO[C@H]1C[C@@H]2CC[C@@H](C)[C@@](O)(O2)C(=O)C(=O)N2CCCC[C@H]2C(=O)O[C@H]([C@H](C)C[C@@H]2CC[C@@H](OCCO)[C@H](OC)C2)CC(=O)[C@H](C)/C=C(\C)[C@@H](O)[C@@H](OC)C(=O)[C@H](C)C[C@H](C)/C=C/C=C/C=C/1C` gave a rosuvastatin AUC of roughly 2.8 fold (human transplant recipients; 2.5 mg/day, one month co-treatment; relative to: healthy volunteers, literature).
`Nc1nc(NC2CC2)c2ncn([C@H]3C=C[C@@H](CO)C3)c2n1` gave an AUC(0-inf) of 14400 ng·h/mL (healthy, mostly White or Black; 600 mg, single dose, fasted, with: dolutegravir 50 mg, lamivudine 300 mg).
`Cc1cn([C@H]2C=C[C@@H](CO)O2)c(=O)[nH]c1=O` has an aqueous solubility of 1.96 log mg/mL (water; hydrate).
`O=c1n(CCCN2CCN(c3cccc(Cl)c3)CC2)nc2ccccn12`: “apparent oral clearance” 155 ± 23 mL/min (healthy humans; oral, 50 mg (HCl salt), with: placebo).
With `CCOC(=O)C1=C[C@@H](OC(CC)CC)[C@H](NC(C)=O)[C@@H](N)C1` the absolute bioavailability was 75 to 80% (human; oral, given as phosphate salt).
The half-life of `C[C@@H]1CCN(C(=O)CC#N)C[C@@H]1N(C)c1ncnc2[nH]ccc12` is reported as roughly 3.2 h (healthy human volunteers; oral, 10 mg).
The Cmax of `O=C(O)c1cc(-c2ccc(F)cc2F)ccc1O` is reported as 495 µM (plasma; concentration not given).
`Nc1ncnc2c1nc(Br)n2[C@@H]1O[C@@H]2COP(=O)(O)O[C@H]2[C@H]1O` gave a log Kw of 1.35 (methanol/water).
`O=C(O)CNC(=O)c1ccccc1[131I]`: “percent injected dose” 0.5 ± 0.2 %ID (normal rat, lung; 10 min, with: co-injected 99mTc-1).
For `NC(=O)N1c2ccccc2C[C@H](O)c2ccccc21`, the brain concentration was 36.4 nmol/g (mouse, latrunculin A seizures; po, 100 mg/kg of eslicarbazepine acetate, 60 min).
Under “log brain permeability-surface product”, `CN1CCC[C@@H]1CCO[C@](C)(c1ccccc1)c1ccc(Cl)cc1` is recorded as -1.16 mL/g/s (rat; with: cyclosporin A).
For `CCCCC1C(=O)N(c2ccccc2)N(c2ccccc2)C1=O`, the Cmax was 438 µM (plasma; concentration not given).
`GVVIA` gave a solubility of 156 ± 33 µM (filtration; peptide, sodium phosphate buffer; pH 7.4).

Some of these lines once more:
`Nc1nc2c(nc(Br)n2[C@@H]2O[C@@H]3COP(=O)(O)O[C@H]3[C@H]2O)c(=O)[nH]1` — result for “Km or Ki”: 4.48 µM (PDE1B; cyclic nucleotide hydrolysis, substrate or inhibitor, isothermal titration calorimetry).
The metabolism of `Cc1nc2cccc(OCC(C)(C)C(=O)NC(C)C)c2c(N)c1C(=O)O` is reported as no more than 0.1% (phase I biotransformation; rat; 60 min; relative to: compound).
Under “time to neuronal uptake”, `CC(C)C[C@H](NC(=O)[C@H](CO)NC(=O)[C@H](CCCNC(=N)N)NC(=O)[C@H](CC(=O)O)NC(=O)[C@H](CCC(=O)O)NC(=O)[C@H](C)NC(=O)[C@@H]1CCCN1C(=O)[C@H](C)NC(=O)[C@H](CCC(=O)O)NC(=O)[C@@H]1CCCN1C(=O)[C@@H]1CCCN1)C(N)=O` is recorded as no more than 30 min (immunohistochemistry; Fischer 344 rats, substantia nigra; direct injection).
